Published values gathered from unrelated publications.
A part holds a random share of what one study measured.

Study 1
Target: Sal-like protein 4, full length isoform A (SALL4, Homo sapiens, UniProt Q9UJQ4, residues 1-1053)
Chain of UniProt Q9UJQ4 (whole entry, looked up): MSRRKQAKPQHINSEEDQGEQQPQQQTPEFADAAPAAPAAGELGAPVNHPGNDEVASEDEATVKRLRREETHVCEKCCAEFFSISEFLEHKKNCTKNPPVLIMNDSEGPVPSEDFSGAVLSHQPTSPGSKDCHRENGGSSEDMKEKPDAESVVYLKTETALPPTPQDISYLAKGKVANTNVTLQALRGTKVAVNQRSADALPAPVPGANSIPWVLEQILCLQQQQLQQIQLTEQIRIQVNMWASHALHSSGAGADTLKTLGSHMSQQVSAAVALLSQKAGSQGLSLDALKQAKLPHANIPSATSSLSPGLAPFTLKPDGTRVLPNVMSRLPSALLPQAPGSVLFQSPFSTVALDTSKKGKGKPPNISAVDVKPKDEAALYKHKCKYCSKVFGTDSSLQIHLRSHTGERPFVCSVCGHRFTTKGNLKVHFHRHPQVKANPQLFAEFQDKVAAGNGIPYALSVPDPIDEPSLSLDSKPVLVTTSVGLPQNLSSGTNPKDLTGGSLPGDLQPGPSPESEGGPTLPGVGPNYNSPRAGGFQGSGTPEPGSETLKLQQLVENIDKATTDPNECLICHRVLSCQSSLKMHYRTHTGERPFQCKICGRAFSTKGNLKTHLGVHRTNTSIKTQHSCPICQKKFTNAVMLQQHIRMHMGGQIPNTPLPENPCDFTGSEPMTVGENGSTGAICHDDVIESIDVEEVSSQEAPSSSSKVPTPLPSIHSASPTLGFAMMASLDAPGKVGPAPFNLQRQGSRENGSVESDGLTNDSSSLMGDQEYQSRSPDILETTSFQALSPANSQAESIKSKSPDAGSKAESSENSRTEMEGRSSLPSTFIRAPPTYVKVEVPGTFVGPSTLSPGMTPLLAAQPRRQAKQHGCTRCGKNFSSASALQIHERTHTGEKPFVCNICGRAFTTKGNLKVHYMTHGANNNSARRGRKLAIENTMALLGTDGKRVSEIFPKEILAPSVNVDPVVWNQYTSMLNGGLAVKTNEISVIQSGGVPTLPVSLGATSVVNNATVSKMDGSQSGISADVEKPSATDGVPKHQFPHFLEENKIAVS
Technique: universal PBM
Form: double-stranded DNA, one strand shown
Medium: in vitro
Tested at: 600 nM
Notes: 8-mer, flanks averaged, mean of replicates
Direction: higher = stronger binding
With `AGGGGAAC` the E-score was -0.266.
With `CTGATAGA` the E-score was 0.16.
`GGGCTTAA` gave an E-score of -0.0912.

Study 2
Target: Interferon regulatory factor 5, full length, phosphomimetic (IRF5, Homo sapiens, UniProt Q13568-2, residues 1-514, K96S/S451D/S453D/S456D/S462D)
Technique: protein-binding microarray
Form: double-stranded DNA, one strand shown
Medium: in vitro
Tested at: 250 nM
Notes: 60-bp whole probe
Together with: salmon DNA 0.4 mg/ml
Reference: random background probes
Direction: higher = stronger binding
For `GCCTAGCACCACGGTTTCCTTATCCTGACGTGCTAGGTCTTGATTCGCTTGACGCTGCTG`, the log fluorescence was 0.776 z-score.
`GCCTAGCACATCATTCTCACTGCAGCCTTGTGCTAGGTCTTGATTCGCTTGACGCTGCTG` has a log fluorescence of 0.699 z-score.
The log fluorescence of `GCCTAGCACTCAGATTTCTCAAACAGACTGTGCTAGGTCTTGATTCGCTTGACGCTGCTG` is reported as 0.146 z-score.
`GCCTAGCACTTATGTCTCCTACTGCTTTAGTGCTAGGTCTTGATTCGCTTGACGCTGCTG` gave a log fluorescence of 0.254 z-score.

Study 3
Target: Histone acetyltransferase KAT6A, winged helix 1, GST fusion (KAT6A, Homo sapiens, UniProt Q92794, residues 1-85)
Technique: protein binding microarray
Form: double-stranded DNA, one strand shown
Medium: in vitro
Tested at: not given
Notes: 8-mer, flanks averaged, mean of 2 arrays, mostly near background
Reference: not given
Direction: higher = stronger binding
Residues (chain): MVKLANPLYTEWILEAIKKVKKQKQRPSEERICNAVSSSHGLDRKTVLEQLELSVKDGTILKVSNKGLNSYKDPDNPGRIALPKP
The E-score of `CGCGTGAG` is reported as 0.308.
The E-score of `GTATCGCA` is reported as 0.0713.
For `ATCGGTTG`, the E-score was -0.0795.

Further values, each from its own experiment
The fold induction of `PhoQ, residues 284 288 289 292 302 303 TSTLRA` is reported as 0.368 (PhoP, residues 12 14 15 18 19 NIMAP (Escherichia coli, UniProt P23836); Sort-seq, item: YFP reporter; E. coli; PhoQ-PhoP variant library, together with: 10 µM Mg2+; reference: high Mg2+ state, higher = stronger signaling).

Repeated from above (study 1):
With `AGGGGAAC` the E-score was -0.266.
